Published values of several laboratories.
Numbered parts are unrelated; each lists some results of a single study. Changes are numbered by the printed parent chain.

Set 1
Target: RING finger protein unkempt homolog, zinc fingers 1-6, GST-SBP tag (UNK, Homo sapiens, UniProt Q9C0B0, residues 30-357)
Method: RNA Bind-n-Seq
Form: RNA
Medium: in vitro
Tested at: not given
Notes: RNA with constant flanks, human and mouse sites, ends assumed
Relative to: input RNA pool
Reading: higher = stronger binding
Constant ends, left off below: GGGAGUUCUACAGUCCGACGAUC … CAACAGAGGAUUGAGCAUCA
Residues (chain): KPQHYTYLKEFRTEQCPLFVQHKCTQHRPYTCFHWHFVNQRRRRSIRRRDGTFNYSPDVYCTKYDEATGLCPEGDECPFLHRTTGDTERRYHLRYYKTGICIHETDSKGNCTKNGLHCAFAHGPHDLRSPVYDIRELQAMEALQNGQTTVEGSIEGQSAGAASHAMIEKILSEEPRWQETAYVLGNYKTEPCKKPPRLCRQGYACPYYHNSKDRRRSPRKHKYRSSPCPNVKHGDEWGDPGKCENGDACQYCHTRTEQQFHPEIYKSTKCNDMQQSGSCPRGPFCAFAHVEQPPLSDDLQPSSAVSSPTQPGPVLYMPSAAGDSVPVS
| Strand | bound/input enrichment [ratio] |
| --- | --- |
| GAUGCCCCCCUGGGAAGUUCUUAUAUGUGCAACAAAGAGCAGACUGUUUCAGUGUCUGGAGCAUUUCAGAUAAAUACCUUUGAUCUAAGGGUUCAGCCUUUCAAUGUGACACAAGGAAAG | 0.185 |
| UAUUUAAGCAAGCAAGAAUUCUCCAGUGAUGAAGAAAUAAAGAAACAGCAGUCCCCAAAGGAUAAACUAAAUAAUAAAUUAAAAGAGAAUGAGAAUAUGAUGGAAGGUAACUUACCGAAG | 3.06 |
| AACACCAACACAGCAAUUGAACUAAAAUUAGUUCGUUUUCCUGAAGAUCUUGAAAAUGACAUUAGAACUUUCUUUCCUGAGUAUACCCAUCAACUCUUUGGGGAUGAUGAAACUGCUUUU | 0.0978 |
| AAUUAUUUUUCCUUGCUCAUGGGCUGGAUGGGAAUUAUCCCUCCUCCGGUGCAGUGUCAUCAUAGACUAUCCAUGACAGAUGAUAGCAAGAAGCAAGAUCUUAGUUCAUCAUUGACAGAU | 0.147 |
| GAUAUAGAAGUGAGACAUGCACUCAACUAUAAUCAGAGACAAUUGAAAGAACUGAAAGAUAGUAAAACUGAUCGACUAAAAAGAUUUGGUCCUCAUGUUCCAGCUCUUCUGGAAGCAAUA | 0.324 |
| GAGAUGGAAGAGGAAACAUCAGGCUAUGGCUUUAAGCCGAAAUAUGAUGGAGAAGAUCUUGCUUACACAGUGAAAAAUCUGAGACGAAGUACAAAGUAUAAAUUUAAGGUCAUUGCUUAU | 0.25 |

Set 2
Target: Histone acetyltransferase KAT6A, winged helix 1, GST fusion (KAT6A, Homo sapiens, UniProt Q92794, residues 1-85)
Method: protein binding microarray
Form: double-stranded DNA, one strand shown
Medium: in vitro
Tested at: not given
Notes: 8-mer, flanks averaged, mean of 2 arrays, mostly near background
Relative to: not given
Reading: higher = stronger binding
Residues (chain): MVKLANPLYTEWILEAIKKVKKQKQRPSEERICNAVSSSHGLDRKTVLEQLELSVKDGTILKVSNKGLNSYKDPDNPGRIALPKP
| Strand | E-score |
| --- | --- |
| CGGTACTC | 0.173 |
| CAATATCA | -0.0325 |
| CCAGCCCA | -0.17 |
| AGAATTGC | 0.0137 |

Set 3
Target: CCND1, cyclin fold, Cln2 fusion (human)
Method: yeast growth competition, sequencing
Medium: yeast
Notes: weak parent motif
Relative to: not given
Reading: higher = stronger binding
Starting sequence: WEE1 docking peptide (human); HKTFRKLRLFDTP
| Change | normalised enrichment score |
| --- | --- |
| HKTFRKLRLFITP [D11I] | -0.295 |
| HKTFRKLYLFDTP [R8Y] | 0.818 |
| MKTFRKLRLFDTP [H1M] | 0.0962 |
| HKTFWKLRLFDTP [R5W] | 0.519 |

Further values, each from its own experiment
| Substance | target | test | system | setting | how to read | endpoint | value |
| --- | --- | --- | --- | --- | --- | --- | --- |
| PhoQ, residues 284 288 289 292 302 303 STVVAA | PhoP, residues 12 14 15 18 19 TPWLV (Escherichia coli, UniProt P23836) | Sort-seq, measured: YFP reporter | E. coli | PhoQ-PhoP variant library, together with: 10 µM Mg2+ | relative to: high Mg2+ state, higher = stronger signaling | fold induction | 1.39 |
